# Experimental data collected from several papers.
# Compare with care: the assays were run in different laboratories. ± marks the error that the study gave.
# Organism: Leishmania donovani
Molecule,assay,test system,setting,IC50
CCOc1ccc(Nc2c3c(nc4ccccc24)CCC3)cc1,,"DD8 resistant line, promastigotes",,14.5 ± 0.55 µM
meglumine antimoniate,,,promastigotes,26.6 ± 5.4 µM
c1ccc(CN2CCN3CCCN(CC2)CCN(Cc2ccccc2)CC3)cc1,"parasite growth, resazurin",,"72 h, promastigote",15.6 µM
O=Cc1cn(Cc2ccc(F)cc2)c2ccc([N+](=O)[O-])cc12,"parasite growth, resazurin",THP-1,"72 h, intracellular, amastigote",> 10 µM
C[C@@H]1N[C@H](CCCCCCCCCCC2=C[C@@H](CCCCCCCCCC[C@@H]3CC[C@@H](O)[C@H](C)N3)[C@@H]3CCCN3C2)CC[C@H]1O,"parasite growth, resazurin",,"72 h, promastigote",0.18 µg/mL
O=Cc1cn(Cc2cccc(Cl)c2)c2ccc([N+](=O)[O-])cc12,"parasite growth, resazurin",,promastigote,> 100 µM
c1ccc(CN2CCCNCCN(Cc3ccccc3)CCCNCC2)cc1,"parasite growth, resazurin",,"72 h, amastigote",> 25 µM
Cc1ccc(Cn2cc(C=O)c3cc([N+](=O)[O-])ccc32)cc1,"parasite growth, resazurin",THP-1,"24 h, intracellular, amastigote",> 10 µM
c1ccc(CN2CCN3CCN(CC2)CCN(Cc2ccccc2)CC3)cc1,"parasite growth, resazurin",,"72 h, amastigote",15.1 µM

# For quick reference, copied from above:
Molecule,assay,test system,setting,IC50
c1ccc(CN2CCN3CCN(CC2)CCN(Cc2ccccc2)CC3)cc1,"parasite growth, resazurin",,"72 h, amastigote",15.1 µM
